Experimental data of several laboratories.
Lines come from different studies, so protocols differ.
Method: steady-state kinetics
B1: FMO3 E158K/E308G (Homo sapiens, UniProt P31513); chain GKKVAIIGAGVSGLASIRSCLEEGLEPTCFEKSNDIGGLWKFSDHAEEGRASIYKSVFSNSSKEMMCFPDFPFPDDFPNFMHNSKIQEYIIAFAKEKNLLKYIQFKTFVSSVNKHPDFATTGQWDVTTERDGKKESAVFDAVMVCSGHHVYPNLPKKSFPGLNHFKGKCFHSRDYKEPGVFNGKRVLVVGLGNSGCDIATELSRTAEQVMISSRSGSWVMSRVWDNGYPWDMLLVTRFGTFLKNNLPTAISDWLYVKQMNARFKHENYGLMPLNGVLRKEPVFNDELPASILCGIVSVKPNVKEFTGTSAIFEDGTIFEGIDCVIFATGYSFAYPFLDESIIKSRNNEIILFKGVFPPLLEKSTIAVIGFVQSLGAAIPTVDLQSRWAAQVIKGTCTLPSMEDMMNDINEKMEKKRKWFGKSETIQTDYIVYMDELSSFIGAKPNIPWLFLTDPKLAMEVYFGPCSPYQFRLVGPGQWPGARNAILTQWDRSLKPMQTRVVGRLQKPCFFFHWLKLFAIPILLIAVFLVLT
B2: enzyme S124T (Arabidopsis thaliana, UniProt O82390); chain MNARALLCSSNIHSLYTSNRPPEKTSSSRSLRNLKPSPKSLRVWIYPRNRSSVFRVLVRSSDKSESSNSYYVEGDKVSGNNDVVSDSPSSIVLPWWEEFPKRWVIVLLCFSAFLLCNMDRVNMTIAILPMSAEYGWNPATVGLIQSSFFWGYLLTQIAGGIWADTVGGKRVLGFGVIWWSIATILTPVAAKLGLPYLLVVRAFMGVGEGVAMPAMNNILSKWVPVQERSRSLALVYSGMYLGSVTGLAFSPFLIHQFGWPSVFYSFGSLGTVWLTLWLTKAESSPLEDPTLLPEERKLIADNCASKEPVKSIPWRLILSKPPVWALISCHFCHNWGTFILLTWMPTYYHQVLKFNLMESGLLSVFPWMTMAISANAGGWIADTLVSRGFSVTNVRKIMQTIGFLGPAFFLTQLKHIDSPTMAVLCMACSQGTDAFSQSGLYSNHQDIAPRYSGVLLGLSNTAGVLAGVLGTAATGHILQHGSWDDVFTISVGLYLVGTVIWNLFSTGEKIID
B3: HCT R356D (Coleus scutellarioides, UniProt E8ZAP2); chain MKIHVRDSTLVRPSAATPAVSLWNSNVDLVVPNFHTPSVYFYRPSGADNFFDTAVMKAALGRALVSFYPMAGRLKRDEDGRVEIDCNAEGVLFVEAESDGTVDDYGDFAPSLELRRLIPAVDYSQGISAYPLLVLQVTFFKCGGVSLGVGMQHHAADGFSGLHFINTWSDMARGLDITLPPFIDRTLLSARDPPQPQFKHVEYQPPPAMKTYEPAETVVSIFKLTKDQLTTLKAKSKEDGNTTTYSSYEMLSGHVWRCTCLARGLPEEQETKLYIATDGRSRLQPQLPPGYFGNVIFTATPLAVAGDLGSKPVWYAASKIHDALARMDNDYLRSALDFLELQPDLKALVRGAHTFDCPNLGITSWVRLPIHDADFGWGRPIFMGPGGIAYEGLSFVLPSPTNDGSLSVAISLQAEHMKLFEKLLYQI
B4: enzyme (UniProt Q53796); chain MTEHPRAHTAHLRTARLELTPLDPAADARHLHHAYGDEEVMRWWTRPACADPAETERYLTSCAAAPGARLWTIRAPDGTVPGMAGLLGGTDVPGLTWLLRRDSWGHGYATEAAAAVVGHALEDGGLDRVEAWIEAGNRRSLAVAARVGLTERARLAQHYPHRPGPHEMVVLGKARAEEPLTTLAVITELPVRDVAATLRLVEAALGARTAFAIGDPPEFAEAALTPWSAGPRFRLAAVPGPGPVEPVRLHLDAAGTADSLHRRAVDAGARVDGPPVRRPWGRSEFVITLPEGHELTVSAPV
B5: enzyme (Bacillus pumilus, UniProt A8FFI9); chain EARSIAWSVDEFFKNREGTFVIQEVKEKSPWVYNKKRAKERFAPQSTFKVANALIGLQTGAVRDEYDIKYWDGVKREIDNWNRDHTLGSGMRDSVVWYYQAMARDIGEERMNHWVKAIHYGNKDISGGIDQFWLSSTLRISPIEQVRFLKQLYEETLPFDLKNMRTVKRMMVQEEEKHATLYGKTGSGSDIGWYVGFIKHEHKTYILATNIKGTGIEAKDITYRILKKYHLMEASV
B6: protein (Danio rerio, UniProt A0ACM8QCA3); chain MEVSEFNLLYKGFLLPKLAHTEESLQYLENFKVKDDDVFAVTYPKSGTTWMQNILPPLLNGGDLTPVQTVPNWDRAPWLEEIRAAVVLEERPSPRAIVSHMPYRLMPSSFYKSKAKVIYVARNPKDVIVSSYHFHKMASFLEDPGTFDDFVNKFLSGEIVFGKWSDHIKSWRNPELKDRILYVTYEEMLQDLRGVLCRMLKFLGRELSTEALDRVVSNSTFKNMKTNKMSNYTMVPQEIMDNNKSAFLRKGVAGDWKNFFSPELDAKFTAVIREEMKGTNIKFPWDEE
B7: iodotyrosine deiodinase (Haliscomenobacter hydrossis, UniProt F4KU78); chain MKQKPAFIPYAGAQFEPEEMLSKSAEYYQFMDHRRTVREFSNRAIPLEVIENIVMTASTAPSGAHKQPWTFVVVSDPQIKAKIRQAAEKEEFESYNGRMSNEWLEDLQPFGTDWHKPFLEIAPYLIVVFRKAYDVLPDGTQRKNYYVQESVGIACGFLLAAIHQAGLVALTHTPSPMNFLQKILQRPENERPFLLVPVGYPAEGAMVPDLQRKDKAAVMVVY
B8: TIIAS (Salvia miltiorrhiza, UniProt A0A8K1XH31); chain MATSSLKNCSQENEADRVHELNAFEATKAGVKGLTDSGVQKVPRMFIRPADELVEERNRSRSPLQAPVIDLGRIGEGEGREKAVSEVRWASKELGIFQIVNHGVAVEVMDAMIDGVRKFHEQDAEAKKQFHTRDAMRKVMYASNVDLYKSRAANWRDTFSVALMGSDRVEPEELPEICRDSTIKYLDEVTNLAHTLFELLSEALGLEQGCLGALKCGRGRTFVGQYYPACPEPELTMGMTNHTDPCFLTILLQDQIGGLQALHNSQYINVEPLPASFVVNIGDMLQIVTNDEFISPIHRVHANRAGPRISVAGFFTGDAISGTIYGPIKELVSENNRARYKEFTVGEYMSKFLERPIDKSGLDEWRLQDEDNV
B9: Mj-MAT W387F/Y323W (Methanocaldococcus jannaschii, UniProt Q58605); chain MRNIIVKKLDVEPIEERPTEIVERKGLGHPDSICDGIAESVSRALCKMYMEKFGTILHHNTDQVELVGGHAYPKFGGGVMVSPIYILLSGRATMEILDKEKNEVIKLPVGTTAVKAAKEYLKKVLRNVDVDKDVIIDCRIGQGSMDLVDVFERQKNEVPLANDTSFGVGYAPLSTTERLVLETERFLNSDELKNEIPAVGEDIKVMGLREGKKITLTIAMAVVDRYVKNIEEYKEVIEKVRKKVEDLAKKIADGYEVEIHINTADDYERESVYLTVTGTSAEMGDDGSVGRGNRVNGLITPFRPMSMEAASGKNPVNHVGKIWNILANLIANDIAKLEGVKECYVRILSQIGKPINEPKALDIEIITEDSYDIKDIEPKAKEIANKFLDNIMEVQKMIVEGKVTTF
B10: TcA (Trypanosoma cruzi, UniProt Q4DRC4); chain MFIRLFAREEEGEKEGKICHMPREYEFAEKILFTEEEIRTRIKEVAKRIADDYKGKGLRPYVNPLVLISVLKGSFMFTADLCRALCDFNVPVRMEFICVSSYGEGLTSSGQVRMLLDTRHSIEGHHVLIVEDIVDTALTLNYLYHMYFTRRPASLKTVVLLDKREGRRVPFSADYVVANIPNAFVIGYGLDYDDTYRELRDIVVLRPEVYAEREAARQKKQRAIGSADTDRDAKREFHSKY
B11: enzyme D235A (Thermococcus kodakarensis, UniProt Q5JID5); chain MLYVEILGNLPEMARDEVKAMLELGGGEIIGQDYLFLKVDAGEKAFPFLDRLGLAHEYGLLLVEADSVEELLQKAGEVEWPIKGAFKVDTETMANCRHDVLDLPRKLGAVIHAQGFRVNLSKPDTVVRVYCGERLYAGIRLRYFDPKDFEKRKAHHRPFFRPISLHPRVSRALVNLTKATREILDPFMGAGGILIEAGLLGLRVYGVDIRPEMVEGAETNLKHYGVRDYTLKLGAATRLEDLFPDKKFEAVATDPPYGTAATLAGRKRDELYRKALRSIYNVLEDGGRLAIAFPTDFNGKAEAEAVGFRTLGRYYQRVHKSLERYFYVFEK

B1 (FMO3 E158K/E308G)
Km (CN1CCC[C@H]1c1cccnc1; HEK293 microsomes; 37 °C, not purified, with: NADPH regenerating system): 2200 µM

Ptb (Listeria monocytogenes, UniProt Q8Y7B7)
Km (CC(=O)SCCNC(=O)CCNC(=O)[C@H](O)C(C)(C)COP(=O)(O)OP(=O)(O)OC[C@H]1O[C@@H](n2cnc3c(N)ncnc32)[C@H](O)[C@@H]1OP(=O)(O)O; pH 7.5, 25 °C, apparent, poor fit): 992 µM

MMP9 (Homo sapiens, UniProt P14780)
Km (CC(=O)NCC(=O)N1CCC[C@H]1C(=O)N[C@@H](CC(C)C)C(=O)NCC(=O)N[C@@H](CC(C)C)C(=O)N[C@@H](CO)C(=O)N[C@@H](CC(C)C)C(=O)NCC(=O)N[C@@H](CCCCN)C(N)=O): 940 µM

B2 (enzyme S124T)
Km (O=P(O)(O)O; pH 6.5, 25 °C, apparent, not purified): 109 µM

B3 (HCT R356D)
Km (NCc1ccc(O)c(O)c1; pH 8, pseudo-first-order, with: p-coumaroyl CoA): 36000 µM

PUT1 del N-terminal 18 (Saccharomyces cerevisiae, UniProt P09368)
Km (COC1=C(OC)C(=O)C(CC=C(C)C)=C(C)C1=O; pH 8, 25 °C, ping-pong, with: proline 300 mM, electron acceptor): 33 µM

B4 (enzyme)
Km (CC(=O)SCCNC(=O)CCNC(=O)[C@H](O)C(C)(C)COP(=O)(O)OP(=O)(O)OC[C@H]1O[C@@H](n2cnc3c(N)ncnc32)[C@H](O)[C@@H]1OP(=O)(O)O; pH 7.5, 30 °C): 19 µM

enzyme (Thermotoga maritima, UniProt Q9WZ18)
Km (Cc1cc2nc3c(=O)[nH]c(=O)nc-3n(C[C@H](O)[C@H](O)[C@H](O)COP(=O)(O)OP(=O)(O)OC[C@H]3O[C@@H](n4cnc5c(N)ncnc54)[C@H](O)[C@@H]3O)c2cc1C; pH 7, 80 °C, apparent, cofactor varied): 0.15 µM

B5 (enzyme)
Km (C[C@H]1[C@H](NC(=O)/C(=N\OC(C)(C)C(=O)O)c2csc(N)n2)C(=O)N1S(=O)(=O)O; pH 7): 35 µM

B6 (protein)
Km (C[C@H](CCCC(CO)CO)[C@H]1CC[C@H]2[C@@H]3[C@H](O)C[C@H]4C[C@H](O)CC[C@]4(C)[C@H]3C[C@H](O)[C@]12C; pH 7, 28 °C, substrate inhibition, with: PAPS 14 µM): 9.47 µM

B7 (iodotyrosine deiodinase)
Km (Cc1cc(C[C@H](N)C(=O)O)cc(I)c1O; pH 7.4, 25 °C): 16 µM

B8 (TIIAS)
Km (C[C@H]1COC2=C1C(=O)C(=O)c1c2ccc2c1CCCC2(C)C; pH 6.5, 20 °C): 67.7 µM

alanine aminopeptidase (Neisseria meningitidis, UniProt Q9JYV4)
Km (NC(=O)Cc1cc(=O)oc2cc(NC(=O)[C@@H](N)Cc3ccc(Cl)cc3)ccc12; pH 7.5, 37 °C): 149 µM

B9 (Mj-MAT W387F/Y323W)
Km (CSCC[C@H](N)C(=O)O; 55 °C, with: ATP 2.5 mM, methionine 0.05-1 mM): 130 µM

B10 (TcA)
Km (Nc1nc2nc[nH]c2c(=O)[nH]1; pH 8.3, 37 °C, apparent, with: PRPP 1 mM, MgCl2 12 mM): 19 µM

enzyme (Borreliella burgdorferi, UniProt P49058)
Km (O=P(O)(O)OC[C@H]1O[C@@H](n2cnc3c(O)ncnc32)C[C@@H]1O; pH 8, 25 °C): 66 µM

B11 (enzyme D235A)
Km (C[S+](CC[C@H](N)C(=O)O)C[C@H]1O[C@@H](n2cnc3c(N)ncnc32)[C@H](O)[C@@H]1O; pH 7.5, 50 °C, apparent): 45 µM

Some of these lines once more:
B5 (enzyme)
Km (C[C@H]1[C@H](NC(=O)/C(=N\OC(C)(C)C(=O)O)c2csc(N)n2)C(=O)N1S(=O)(=O)O; pH 7): 35 µM

B8 (TIIAS)
Km (C[C@H]1COC2=C1C(=O)C(=O)c1c2ccc2c1CCCC2(C)C; pH 6.5, 20 °C): 67.7 µM

enzyme (Borreliella burgdorferi, UniProt P49058)
Km (O=P(O)(O)OC[C@H]1O[C@@H](n2cnc3c(O)ncnc32)C[C@@H]1O; pH 8, 25 °C): 66 µM
